Published values gathered from unrelated publications.
Parts stem from different laboratories: compare values within a part only.
Chain of UniProt P62344 (whole entry, looked up): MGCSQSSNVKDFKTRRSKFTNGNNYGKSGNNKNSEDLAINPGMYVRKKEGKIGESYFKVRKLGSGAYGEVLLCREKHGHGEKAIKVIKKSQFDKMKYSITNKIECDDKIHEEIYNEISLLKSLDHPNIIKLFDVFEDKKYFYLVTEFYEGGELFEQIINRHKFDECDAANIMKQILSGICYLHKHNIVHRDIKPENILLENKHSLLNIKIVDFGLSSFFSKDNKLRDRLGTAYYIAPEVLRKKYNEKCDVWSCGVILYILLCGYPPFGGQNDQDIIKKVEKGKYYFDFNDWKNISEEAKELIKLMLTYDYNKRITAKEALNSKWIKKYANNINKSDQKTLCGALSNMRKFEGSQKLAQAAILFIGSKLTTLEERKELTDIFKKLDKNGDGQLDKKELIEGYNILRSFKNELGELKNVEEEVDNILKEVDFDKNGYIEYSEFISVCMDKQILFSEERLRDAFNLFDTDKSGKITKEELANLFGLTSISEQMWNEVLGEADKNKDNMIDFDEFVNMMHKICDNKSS
Chain of UniProt Q96PY6 (whole entry, looked up): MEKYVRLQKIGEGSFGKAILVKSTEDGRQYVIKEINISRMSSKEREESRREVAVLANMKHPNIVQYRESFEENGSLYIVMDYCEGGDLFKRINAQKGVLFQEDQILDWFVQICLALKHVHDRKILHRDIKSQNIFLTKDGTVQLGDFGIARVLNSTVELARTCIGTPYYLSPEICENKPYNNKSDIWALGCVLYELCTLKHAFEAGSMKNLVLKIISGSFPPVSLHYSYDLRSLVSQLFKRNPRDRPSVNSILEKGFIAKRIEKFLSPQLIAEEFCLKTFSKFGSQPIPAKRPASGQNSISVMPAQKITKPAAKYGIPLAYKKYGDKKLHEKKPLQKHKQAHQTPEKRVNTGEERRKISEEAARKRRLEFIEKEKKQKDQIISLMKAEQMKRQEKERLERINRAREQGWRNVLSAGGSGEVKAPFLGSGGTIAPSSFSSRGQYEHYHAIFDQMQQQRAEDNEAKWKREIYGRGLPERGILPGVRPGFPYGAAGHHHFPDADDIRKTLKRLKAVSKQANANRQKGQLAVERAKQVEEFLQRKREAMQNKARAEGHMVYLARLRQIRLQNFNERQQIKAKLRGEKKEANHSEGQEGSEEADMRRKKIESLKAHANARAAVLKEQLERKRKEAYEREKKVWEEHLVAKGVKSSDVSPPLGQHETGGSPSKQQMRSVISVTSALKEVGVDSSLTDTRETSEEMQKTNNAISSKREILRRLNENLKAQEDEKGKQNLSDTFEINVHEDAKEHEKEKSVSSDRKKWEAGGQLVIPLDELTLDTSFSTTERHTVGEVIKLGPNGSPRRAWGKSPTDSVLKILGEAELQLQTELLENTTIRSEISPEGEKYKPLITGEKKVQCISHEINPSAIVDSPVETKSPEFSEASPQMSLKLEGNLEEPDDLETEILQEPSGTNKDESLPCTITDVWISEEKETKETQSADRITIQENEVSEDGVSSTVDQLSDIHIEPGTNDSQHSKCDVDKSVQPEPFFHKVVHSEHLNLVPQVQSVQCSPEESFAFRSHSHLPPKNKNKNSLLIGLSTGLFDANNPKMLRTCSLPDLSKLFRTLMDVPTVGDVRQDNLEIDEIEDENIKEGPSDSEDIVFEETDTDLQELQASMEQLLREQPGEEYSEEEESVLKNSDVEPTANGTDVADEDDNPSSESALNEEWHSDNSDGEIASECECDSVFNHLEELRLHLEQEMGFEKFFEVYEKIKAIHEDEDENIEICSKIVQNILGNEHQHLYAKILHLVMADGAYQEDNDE
Chain of UniProt Q9HC98 (whole entry, looked up): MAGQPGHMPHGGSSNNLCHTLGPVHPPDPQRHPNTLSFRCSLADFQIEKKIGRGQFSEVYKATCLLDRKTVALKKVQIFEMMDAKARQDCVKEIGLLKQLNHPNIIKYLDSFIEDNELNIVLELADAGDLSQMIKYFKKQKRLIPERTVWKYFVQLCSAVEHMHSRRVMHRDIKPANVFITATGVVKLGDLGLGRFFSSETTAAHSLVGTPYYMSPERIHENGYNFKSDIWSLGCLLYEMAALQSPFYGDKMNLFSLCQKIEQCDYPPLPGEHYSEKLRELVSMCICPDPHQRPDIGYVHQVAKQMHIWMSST
Chain of UniProt Q99683 (whole entry, looked up): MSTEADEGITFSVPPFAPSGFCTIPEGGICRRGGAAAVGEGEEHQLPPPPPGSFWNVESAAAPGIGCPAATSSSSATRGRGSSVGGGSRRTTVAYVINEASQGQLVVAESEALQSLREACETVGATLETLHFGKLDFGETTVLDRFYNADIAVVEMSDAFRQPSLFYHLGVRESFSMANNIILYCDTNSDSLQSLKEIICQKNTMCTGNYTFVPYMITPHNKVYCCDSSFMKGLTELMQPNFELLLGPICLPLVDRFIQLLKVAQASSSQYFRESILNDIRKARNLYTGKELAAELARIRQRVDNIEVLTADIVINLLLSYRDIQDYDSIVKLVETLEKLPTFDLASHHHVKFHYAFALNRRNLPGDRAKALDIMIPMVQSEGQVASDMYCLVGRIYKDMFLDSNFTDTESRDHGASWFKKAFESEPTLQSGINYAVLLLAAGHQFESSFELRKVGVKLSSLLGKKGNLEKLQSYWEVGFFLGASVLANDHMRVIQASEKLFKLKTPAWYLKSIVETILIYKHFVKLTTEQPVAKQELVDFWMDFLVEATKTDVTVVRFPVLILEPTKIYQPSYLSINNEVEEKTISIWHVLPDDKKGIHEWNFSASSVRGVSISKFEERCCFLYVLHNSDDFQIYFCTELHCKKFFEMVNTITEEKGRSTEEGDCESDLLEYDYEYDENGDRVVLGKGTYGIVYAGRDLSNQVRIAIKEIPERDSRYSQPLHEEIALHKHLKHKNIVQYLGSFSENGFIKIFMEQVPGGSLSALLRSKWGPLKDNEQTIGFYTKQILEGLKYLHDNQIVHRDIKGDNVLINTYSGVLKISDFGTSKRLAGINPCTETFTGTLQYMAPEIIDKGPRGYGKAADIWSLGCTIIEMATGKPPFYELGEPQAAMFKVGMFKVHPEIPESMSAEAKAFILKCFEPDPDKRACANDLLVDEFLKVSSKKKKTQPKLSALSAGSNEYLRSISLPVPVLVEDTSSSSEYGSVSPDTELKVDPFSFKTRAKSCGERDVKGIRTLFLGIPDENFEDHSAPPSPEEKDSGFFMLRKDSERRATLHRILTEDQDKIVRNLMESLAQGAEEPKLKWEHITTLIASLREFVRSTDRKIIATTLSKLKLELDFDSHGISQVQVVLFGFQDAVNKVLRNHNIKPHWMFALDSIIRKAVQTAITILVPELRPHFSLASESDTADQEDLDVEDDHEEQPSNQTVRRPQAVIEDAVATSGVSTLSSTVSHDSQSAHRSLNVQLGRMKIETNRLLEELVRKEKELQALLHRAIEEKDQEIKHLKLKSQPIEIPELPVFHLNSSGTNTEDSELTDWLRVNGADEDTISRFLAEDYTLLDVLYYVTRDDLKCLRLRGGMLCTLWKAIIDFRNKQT
Chain of UniProt Q6PHR2 (whole entry, looked up): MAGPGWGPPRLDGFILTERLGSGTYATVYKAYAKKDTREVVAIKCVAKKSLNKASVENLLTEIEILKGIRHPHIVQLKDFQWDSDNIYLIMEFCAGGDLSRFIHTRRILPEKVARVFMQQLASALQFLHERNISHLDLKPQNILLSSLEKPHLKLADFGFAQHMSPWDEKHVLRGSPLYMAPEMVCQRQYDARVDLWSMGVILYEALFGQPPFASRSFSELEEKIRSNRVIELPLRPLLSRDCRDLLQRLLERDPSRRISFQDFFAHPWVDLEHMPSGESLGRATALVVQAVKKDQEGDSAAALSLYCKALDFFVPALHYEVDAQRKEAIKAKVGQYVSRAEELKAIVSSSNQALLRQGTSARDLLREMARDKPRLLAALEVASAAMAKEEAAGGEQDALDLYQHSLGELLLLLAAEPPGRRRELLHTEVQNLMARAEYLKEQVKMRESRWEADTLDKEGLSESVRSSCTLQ

Sample 1 — observed: enzyme activity; mode: inhibitor; tested at: 0.5 µM; reference: control
SMILES: COC[C@H]1OC(=O)c2coc3c2[C@@]1(C)C1=C(C3=O)[C@@H]2CCC(=O)[C@@]2(C)C[C@H]1OC(C)=O
target	remaining activity [%]
ABL2 (Homo sapiens, UniProt P42684)	94.9
CSNK1G3 (Homo sapiens, UniProt Q9Y6M4)	96.2
ULK3 (Homo sapiens, UniProt Q6PHR2)	84.4
GRK7 (Homo sapiens, UniProt Q8WTQ7)	90.4
NEK1 (Homo sapiens, UniProt Q96PY6)	83.3
ULK2 (Homo sapiens, UniProt Q8IYT8)	101
GSK3B (Homo sapiens, UniProt P49841)	80.5
MST1R (Homo sapiens, UniProt Q04912)	92.7
MAP2K2 (Homo sapiens, UniProt P36507)	93.8
MAP3K5 (Homo sapiens, UniProt Q99683)	105
ARAF (Homo sapiens, UniProt P10398)	82.5
NEK6 (Homo sapiens, UniProt Q9HC98)	103
RPS6KA2 (Homo sapiens, UniProt Q15349)	94.8
FGFR3 (Homo sapiens, UniProt P22607)	96.4
FGFR1 (Homo sapiens, UniProt P11362)	89.6
LCK (Homo sapiens, UniProt P06239)	92.7

Sample 2 — species: human; medium: microsomes or S9; tested at: 2 µM; time: 0.5 h
Compound	remaining compound [%]
CC(C)(CO)CCCNC(=O)N1CCC2(CC1)OCCO2	> 99
Cc1ccc(C2NCc3ccccc3-n3cccc32)c(C)c1 (centres unmarked)	34
COc1cc(=O)n(-c2ccc(C#N)c(Cl)c2C)nc1C	74.6

Sample 3 — observed: enzyme activity; mode: inhibitor; tested at: 10 µM
Target: Calcium/calmodulin-dependent protein kinase type II subunit alpha (CAMK2A, Homo sapiens, UniProt Q9UQM7)
Chain of UniProt Q9UQM7 (whole entry, looked up): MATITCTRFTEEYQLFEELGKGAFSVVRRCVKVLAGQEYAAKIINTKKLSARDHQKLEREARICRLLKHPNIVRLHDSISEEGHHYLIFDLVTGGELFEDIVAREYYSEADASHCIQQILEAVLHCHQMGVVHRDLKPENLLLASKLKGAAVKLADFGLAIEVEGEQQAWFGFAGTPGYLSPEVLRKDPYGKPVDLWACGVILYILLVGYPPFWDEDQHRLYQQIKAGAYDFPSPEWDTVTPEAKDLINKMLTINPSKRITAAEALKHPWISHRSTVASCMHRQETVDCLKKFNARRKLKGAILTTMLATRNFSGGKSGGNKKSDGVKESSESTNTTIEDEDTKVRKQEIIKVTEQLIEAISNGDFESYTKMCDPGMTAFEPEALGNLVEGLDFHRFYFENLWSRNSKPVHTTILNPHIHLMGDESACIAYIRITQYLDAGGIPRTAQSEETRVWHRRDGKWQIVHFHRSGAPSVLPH
SMILES	inhibition [%]
CCCCOC(=O)c1ccccc1C(=O)OCC(C)C	6
CO[C@@H]1C[C@H](O[C@H]2CC[C@@]3(C)[C@H](CC[C@@]45O[C@@]46CC[C@H](C4=CC(=O)OC4)[C@@]6(C)CC[C@H]35)C2)O[C@H](C)[C@@H]1O	-146
N[C@@H](CNC(=O)C(=O)O)C(=O)O	3

Sample 4 — cell line: mouse MPNST tumor cells; method: high-content nuclear imaging; item: cell number; tested at: 10 µM; time: 12 h; notes: mean of 2 replicates; reference: plate mean; reading: higher = more cells
SMILES	nuclei count [z-score]
NCCCNCCSP(=O)(O)O	0.407
COc1cc([C@@H]2c3cc4c(cc3[C@H](O)[C@H]3COC(=O)[C@H]23)OCO4)cc(OC)c1OC	-4.16
CNC(=O)Oc1ccc2c(c1)[C@]1(C)CCN(C)[C@@H]1N2C	0.132

Sample 5 — organism: Sarcocystis neurona; observed: parasite growth; tested at: 10 µM; time: 96 h; notes: secondary screen
SMILES	inhibition [%]
c1ccc(Cn2ccnc2)cc1	-18.9
C[C@H]1CCC[C@H](O)CCCCCc2cc(O)cc(O)c2C(=O)O1	-42.7
NC(=O)OCCCc1ccccc1	-8.6

Further values, each from its own experiment — observed: cell-free assay; method: competition with immobilised ligand; tested at: 1 µM
pknB: Serine/threonine-protein kinase PknB (pknB, Mycobacterium tuberculosis, UniProt P9WI81)
Chain of UniProt P9WI81 (whole entry, looked up): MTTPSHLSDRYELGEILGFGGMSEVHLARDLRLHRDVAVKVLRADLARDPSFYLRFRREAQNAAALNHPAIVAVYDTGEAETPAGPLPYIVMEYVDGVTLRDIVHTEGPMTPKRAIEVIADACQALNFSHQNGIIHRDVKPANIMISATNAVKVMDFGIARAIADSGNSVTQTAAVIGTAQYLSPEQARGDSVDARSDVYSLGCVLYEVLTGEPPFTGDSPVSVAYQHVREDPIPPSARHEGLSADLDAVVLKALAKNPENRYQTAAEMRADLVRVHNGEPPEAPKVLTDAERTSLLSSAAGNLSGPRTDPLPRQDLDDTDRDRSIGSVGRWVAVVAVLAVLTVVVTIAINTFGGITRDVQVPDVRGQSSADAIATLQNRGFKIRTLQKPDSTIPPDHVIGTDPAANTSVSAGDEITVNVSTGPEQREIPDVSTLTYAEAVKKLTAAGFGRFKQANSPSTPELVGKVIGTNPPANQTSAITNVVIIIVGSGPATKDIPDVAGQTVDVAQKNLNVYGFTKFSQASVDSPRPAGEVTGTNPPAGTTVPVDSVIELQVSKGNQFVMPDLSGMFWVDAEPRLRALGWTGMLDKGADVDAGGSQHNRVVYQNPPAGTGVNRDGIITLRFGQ
SMILES	target	remaining binding [%]
C[C@H](c1ccc(F)cc1)N(Cc1cccc(C(=O)O)c1)C(=O)c1cnc2ccccc2c1	CDPK1 (Plasmodium falciparum, UniProt P62344)	100
CN(c1ccnc(CNc2nc(Nc3ccc4c(c3)CC(=O)N4)ncc2C(F)(F)F)n1)S(C)(=O)=O	pknB	80
O=C(N[C@H]1CCCCC/C=C\C2C[C@@]2(C(=O)O)NC(=O)[C@@H]2C[C@@H](Oc3ccncc3)CN2C1=O)OC1CCCC1 (some centres unmarked)	pknB	93
CCOCCn1cc(C(=O)Nc2ccc(-n3nc(-c4cccnc4)cc3C(F)(F)F)cn2)ccc1=O	CRK2 (Plasmodium falciparum, UniProt P61075)	86

Repeated from above (sample 5):
SMILES	inhibition [%]
C[C@H]1CCC[C@H](O)CCCCCc2cc(O)cc(O)c2C(=O)O1	-42.7
NC(=O)OCCCc1ccccc1	-8.6
